Assay results gathered from unrelated publications.
Each numbered part is a random draw from the data of one study; scales do not carry over between parts. Changes are numbered by the printed parent chain.

Sample 1
Target: CCNE2, cyclin fold, Cln2 fusion (human)
Method: yeast growth competition, sequencing
Medium: yeast
Notes: strong parent motif
Baseline: not given
Direction: higher = stronger binding
Endpoint: normalised enrichment score
Starting sequence: E2F1 docking peptide (human); PPVKRRLDFETDH
P2M: 4.72
L7I: 3.91
R6I: 4.37
P2C: 5.72
V3L: 1.62
F9N: 0.314
E10T: 6.33
D8H: 5.93
V3Q: 0.877
L7S: 0.11
V3D: -0.208
L7F: 0.318
D8N: 6.44
V3H: 3.58
K4I: 3.87
D8Q: 5.82
T11A: 5.15
D8R: 5.5
P2H: 6.06

Sample 2
Target: RNA binding protein fox-1 homolog 2, RRM domain, GST-SBP tag (RBFOX2, Homo sapiens, UniProt O43251-10, residues 100-194)
Method: RNA Bind-n-Seq
Molecule type: RNA
Medium: in vitro
Concentration: 365 nM
Notes: natural RNA segment, single round, ends assumed
Baseline: no-protein control
Direction: higher = stronger binding
Endpoint: RBNS enrichment (R)
All sequences stand within: GGGAGUUCUACAGUCCGACGAUC … UGGAAUUCUCGGGUGCCAA
Construct (chain): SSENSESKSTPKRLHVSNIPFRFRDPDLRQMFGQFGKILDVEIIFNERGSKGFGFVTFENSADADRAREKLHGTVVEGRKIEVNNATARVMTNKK
CUUAACAGUUGCCCGGUCCUGCUGGCCCCUUUUCCUCUGGCCCCCCUCUUCUGAAACAGGAUGUGCACACAUGGGCCAUAGCCCUAAGGACUCCUGCCAGACCACACAGC: 0.339
UAUUUAAUUUUUUGCCACAUAUUUAUUUAAAGGCGAGCAAUAUUUUCUUGGUCACAAUAUUUUUUAGUGGAAUUCCUCUCAAGGUUUUUAUACUCCUGUGUAAUAAGACU: 0.621
ACUUUACUACAGUUGUGAAUUAGUUUAAACCGUACAAUGUUGUUAUCAUAUCAUGCUUCAACUAUUAAAUUAAGCCCAUCAUAUCAUAGCACUAAAAAGAUUGAGUUAAA: 0.304
UCUCGGGGGAACCGGACAGCAGCUUGGCAAAGGCCUCCCUAAAAGGCCGCAUUUCUGACCUGAGCCCCGGGUCUCGGCUGUUUCGAGCCCCGCCUCGGACUUGCCUUCCC: 0.447
UGUGUGGGUGUGUGUAUGUGUAUUGGGGGUUUUGUUUUGCUUUGCUUUUAAAUAUACAAGGGGUUCUUCUUUAAAUAGAGGAAAAGGUUAAUCCUCUCCAGCAGGAUGCC: 0.626
UCCAGCCCAAGAGGGACUCCUGGCUGCCCACAUGGCCUAAGAUGUGGGUCCUGGAUCCUUCCCCCCUUCUCACCAUAACCCCCUCUCAGUGUUUCCCCAACUUCUCCCUU: 1.15
UGCUCCAGAUAAUCUUGUCCCUGCUCCUCACUUCCACAGGGGACAUUGUGAGGCCACUGGCAUGGAUGCUAUGCACCCCACCCUUUGCUGGCCAUAUUCCUCCUGUCCCC: 0.326
GCCUUUACGUUCAUCACCUGCUAGAACCUCUCGUAGUCCAUCACCAUUUCUUGGCAUUGGAAUUCUACUGGAAAAAAAUACAAAAAGCAAAACAAAACCCUCAGCACUGU: 0.554
AUUUCAUUGUUUUAAUCAAGGGCUUAAGGUGUCCUCAUUCUUGGACAUGAGAUGUAUUUAAGGAAAGUAGUCACUAUUCAAAGAACAAAUUAAAGUGUUUAUAACAAACU: 0.325
CUCUGCAGACCCAGCACCCUCGGAUGCCCCUCCAGCGGCUCGACAACGACGUGGACCUGCGUGGGGACCAGCCCUCCCUGGGCAGCUUCACCUACUCCACCUCUGCGCCU: 0.233
GACUGUAGGAUGGUUUGAACGAAAACCCAGGGCCACUGAUAGCAGUGCCCAAGAUUAUCUGUAAAGUAAUAAAAUCUGCCGAGGAGAAUGUGAAAAGAAUUUGUUCAAGG: 1.53
GUAGAUGUGUGAGGGGCUGCAUUAUGGGAACUGGCUCACAGAUUCUGGAGGCCAACAAGUCCCACGAUCGGCUGUCUGCGAUUGGGAGACCAGGAGAAGCCACACCGUAA: 0.509

Sample 3
Target: Prothrombin, mature alpha-thrombin (F2, Homo sapiens, UniProt P00734)
Method: aptamer microarray, sandwich
Molecule type: DNA with 2'F-ANA
Medium: in vitro
Concentration: 200 nM
Notes: whole 15-mer aptamer, many near background
Together with: Cy3 exosite-II aptamer, 400 nM
Direction: higher = stronger binding
Endpoint: mean fluorescence intensity
Sequence: GGTTGGTGTGGTTGG
2'F-ANA at 2 3 4 7 12 14: 412 a.u.
2'F-ANA at 1 2 6 7 9 11 13 14 15: 95 a.u.
2'F-ANA at 2 3 5 6 7 8 10 11: 49.6 a.u.
2'F-ANA at 1 3 6 7 9 11 13: 205 a.u.
2'F-ANA at 2 5 9 10 11 13 14: 48.3 a.u.
2'F-ANA at 2 3 4 5 9 14: 49.5 a.u.
2'F-ANA at 2 4 5 6 7 8 10 11 15: 55.7 a.u.
2'F-ANA at 1 3 6 7 8 9 13 15: 222 a.u.
2'F-ANA at 2 3 5 7 9 11 12 13 15: 120 a.u.
2'F-ANA at 1 3 4 6 8 13 14 15: 65.7 a.u.
2'F-ANA at 1 6 7 9 10 11 15: 61.2 a.u.
2'F-ANA at 4 6 7 9 10 12 15: 103 a.u.
2'F-ANA at 1 2 3 4 5 8 11 12 13: 83.4 a.u.
2'F-ANA at 2 3 5 6 9 10 11 12 14: 48.5 a.u.
2'F-ANA at 1 4 8 12 14: 62.6 a.u.
2'F-ANA at 2 6 11 12 13: 508 a.u.
2'F-ANA at 2 4 6 7 8 9 12 13 14: 98.2 a.u.
2'F-ANA at 3 6 10 13 14: 355 a.u.
2'F-ANA at 4 5 9 10 11 13: 45 a.u.

Sample 4
Target: Histone acetyltransferase KAT6A, winged helix 1, GST fusion (KAT6A, Homo sapiens, UniProt Q92794, residues 1-85)
Method: protein binding microarray
Molecule type: double-stranded DNA, one strand shown
Medium: in vitro
Concentration: not given
Notes: 8-mer, flanks averaged, mean of 2 arrays, mostly near background
Baseline: not given
Direction: higher = stronger binding
Endpoint: E-score
Construct (chain): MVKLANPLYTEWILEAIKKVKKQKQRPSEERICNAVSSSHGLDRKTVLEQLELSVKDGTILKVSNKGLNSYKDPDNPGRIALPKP
ACTCAACT: -0.251
AGTCTTAA: -0.105
GCGGTTCC: 0.251
AAATGTCC: -0.1
AAGCCCGT: 0.224
CACCGTGG: -0.0011
GCCCAGAC: -0.162
GAGTCGCA: -0.0499
CAGACACA: -0.292
CCGGACAA: 0.133
TCCAAGAA: -0.139
CGACTACC: 0.00471
GTCGAACA: -0.105
ATGAACAA: -0.169
AATTCTTC: -0.0554
GAAGGAAA: -0.145
AGGGTCAG: -0.156
ACCGACCT: 0.00502
AGATCACC: -0.0741
CGAATATC: -0.0772
ACTGTCAC: -0.115
CCTAACCA: -0.179
CCGGAAAC: 0.14

Repeated from above (sample 2):
UCUCGGGGGAACCGGACAGCAGCUUGGCAAAGGCCUCCCUAAAAGGCCGCAUUUCUGACCUGAGCCCCGGGUCUCGGCUGUUUCGAGCCCCGCCUCGGACUUGCCUUCCC: 0.447
UGUGUGGGUGUGUGUAUGUGUAUUGGGGGUUUUGUUUUGCUUUGCUUUUAAAUAUACAAGGGGUUCUUCUUUAAAUAGAGGAAAAGGUUAAUCCUCUCCAGCAGGAUGCC: 0.626
UCCAGCCCAAGAGGGACUCCUGGCUGCCCACAUGGCCUAAGAUGUGGGUCCUGGAUCCUUCCCCCCUUCUCACCAUAACCCCCUCUCAGUGUUUCCCCAACUUCUCCCUU: 1.15
UGCUCCAGAUAAUCUUGUCCCUGCUCCUCACUUCCACAGGGGACAUUGUGAGGCCACUGGCAUGGAUGCUAUGCACCCCACCCUUUGCUGGCCAUAUUCCUCCUGUCCCC: 0.326
GCCUUUACGUUCAUCACCUGCUAGAACCUCUCGUAGUCCAUCACCAUUUCUUGGCAUUGGAAUUCUACUGGAAAAAAAUACAAAAAGCAAAACAAAACCCUCAGCACUGU: 0.554
AUUUCAUUGUUUUAAUCAAGGGCUUAAGGUGUCCUCAUUCUUGGACAUGAGAUGUAUUUAAGGAAAGUAGUCACUAUUCAAAGAACAAAUUAAAGUGUUUAUAACAAACU: 0.325
CUCUGCAGACCCAGCACCCUCGGAUGCCCCUCCAGCGGCUCGACAACGACGUGGACCUGCGUGGGGACCAGCCCUCCCUGGGCAGCUUCACCUACUCCACCUCUGCGCCU: 0.233
GACUGUAGGAUGGUUUGAACGAAAACCCAGGGCCACUGAUAGCAGUGCCCAAGAUUAUCUGUAAAGUAAUAAAAUCUGCCGAGGAGAAUGUGAAAAGAAUUUGUUCAAGG: 1.53
GUAGAUGUGUGAGGGGCUGCAUUAUGGGAACUGGCUCACAGAUUCUGGAGGCCAACAAGUCCCACGAUCGGCUGUCUGCGAUUGGGAGACCAGGAGAAGCCACACCGUAA: 0.509
